Measured values collected from several papers.
Each line is one published result; not all experiments were run side by side. Values joined by “and” are separate records of one study, mostly repeats; a detail may differ. ± gives the spread as reported. ≈ marks a conversion by molar mass, not a printed value.
Sequence of UniProt Q00535 (whole entry, looked up): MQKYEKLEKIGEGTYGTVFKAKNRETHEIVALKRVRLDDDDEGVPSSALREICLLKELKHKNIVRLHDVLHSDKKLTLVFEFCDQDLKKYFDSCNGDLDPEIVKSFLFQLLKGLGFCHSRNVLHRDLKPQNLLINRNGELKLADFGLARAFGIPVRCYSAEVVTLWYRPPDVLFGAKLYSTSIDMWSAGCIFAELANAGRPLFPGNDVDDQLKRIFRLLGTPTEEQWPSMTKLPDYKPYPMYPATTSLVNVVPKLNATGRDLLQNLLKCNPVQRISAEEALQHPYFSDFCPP

Compound | target or system | assay | test system | conditions | scale | measurement | value
COC(=O)C1CN1S(=O)(=O)c1ccc(C)cc1 (stereo not drawn) | – | – | mouse Lewis lung carcinoma | intraperitoneal, 100 mg/kg, day 14 | – | tumour growth inhibition | 58%
Cc1cc(Oc2nc(N3CC[C@@H](c4ccncc4)C3)ncc2F)[nH]n1 | WSU-NHL | cell proliferation | – | – | – | IC50 | 21.4 µM
CCN(Cc1ccccc1)C(=O)CCc1nc(CN2CCN(C(=O)Cc3ccc(OC)c(OC)c3)CC2)no1 | – | current clamp | DRG neurons, naive rat | 10 µM, with: 500 pA current injection | – | action potential number | 0.67 ± 0.09
CCCCCC1=C(NCC)C(=O)C(C/C=C(\C)CCC=C(C)C)=C(O)C1=O | – | RNA-seq GSEA, refers to: HALLMARK_MYOGENESIS | mouse, A53T α-synuclein lesioned, striatum | dose not given | reference: untreated A53T lesioned mice, direction not given | normalised enrichment score | -1.72
O=C1NC2(CC2)COc2ncc(F)cc2[C@H]2COCCN2c2ccn3ncc1c3n2 | – | – | Sprague-Dawley rat, male, serum | oral, 10 mg/kg/day, end of treatment, 4-week subacute toxicity | – | serum LDH activity | 845 ± 401 U/L
CCc1nnc(-c2c(OC)cc(-c3cnc4cc(-c5cnn(C)c5)ccn34)cc2OC)o1 | – | histomorphometry | male C57BL/6J mouse, tibia | oral gavage, 40 mg/kg once daily, 3 wk | – | osteoblast surface/bone surface | 8.07 ± 0.41%
NCCO.O=C(O)C(Cl)Cl | Solanum nigrum | herbicidal activity | – | 15 mg/mL, 21 days, pre-emergence greenhouse | – | inhibition | 0%
Cc1cc(O)cc(C)c1C[C@H](N)C(=O)N[C@H](CCCNC(=N)N)C(=O)N[C@@H](Cc1ccccc1)C(=O)N[C@@H](CCCCN)C(=O)NNC(=O)[C@H](Cc1ccccc1)NC(=O)[C@H](CC1CCCCC1)NC[C@@H]1Cc2ccccc2CN1C(=O)[C@@H](N)Cc1ccc(O)cc1 | – | agonist | guinea pig ileum | – | – | IC50 | 0.47 ± 0.044 µM
CCCC[C@@H]1NC(=O)[C@H](Cc2ccc(O)cc2)NC(=O)[C@@H]2CCCN2C(=O)[C@H](CC(=O)O)NC(=O)[C@H](C)NC(=O)[C@H](Cc2ccccc2)NC(=O)[C@@H]2CSCCC(=O)N3CN(CN(C3)C(=O)CCSC[C@@H](C(=O)N[C@@H](C)C(N)=O)NC1=O)C(=O)CCSC[C@H](NC(C)=O)C(=O)N[C@@H](CC(C)(C)C)C(=O)N1CCC[C@H]1C(=O)N[C@@H](CCC(=O)O)C(=O)N[C@H](CCCCNC(=O)CCc1cn(CCOCCOCCOCCN(CCOCCOCCOCCC(=O)N[C@H]3CSCCC(=O)N4CN5CN(C4)C(=O)CCSC[C@H](NC(=O)[C@@H](CC(=O)O)NC(=O)[C@H](Cc4cccc6ccccc46)NC(=O)[C@@H]4CCCN4C3=O)C(=O)N[C@@H](CCSC)C(=O)N[C@@H](CCCCNC(=N)N)C(=O)N[C@@H](CC(=O)O)C(=O)N[C@@H](Cc3c[nH]c4ccccc34)C(=O)N[C@@H](CO)C(=O)N[C@@H]([C@@H](C)O)C(=O)N3CCC[C@H]3C(=O)N3C[C@H](O)C[C@H]3C(=O)N[C@@H](Cc3c[nH]c4ccccc34)C(=O)N[C@H](C(N)=O)CSCCC5=O)CCOCCOCCOCCn3cc(CCC(=O)NCCCC[C@H]4NC(=O)[C@H](CCC(=O)O)NC(=O)[C@@H]5CCCN5C(=O)[C@H](CC(C)(C)C)NC(=O)[C@@H](NC(C)=O)CSCCC(=O)N5CN6CN(C5)C(=O)CCSC[C@H](NC(=O)[C@H](Cc5ccc(O)cc5)NC(=O)[C@@H]5CCCN5C4=O)C(=O)N[C@@H](Cc4ccccc4)C(=O)N[C@@H](C)C(=O)N[C@@H](CC(=O)O)C(=O)N4CCC[C@H]4C(=O)N[C@@H](Cc4ccc(O)cc4)C(=O)N[C@@H](CCCC)C(=O)N[C@H](C(=O)N[C@@H](C)C(N)=O)CSCCC6=O)nn3)nn1)C(=O)N1CCC[C@H]1C(=O)N[C@@H](Cc1ccc(O)cc1)C(=O)N2 | – | NanoString, refers to: Il1rl2-mRNA | mouse bearing MC38-Nectin-4 tumour, circulating white blood cells | 5 mg/kg, 24 h after dosing, unit not given | reference: vehicle | mRNA level | 5.11
CC[C@H](C)[C@H](NC(=O)[C@H](CO)NC(=O)[C@H](Cc1ccc(O)cc1)NC(=O)[C@H](Cc1ccc(O)cc1)NC(=O)[C@H](CC(N)=O)NC(=O)CNC(=O)[C@H](CO)NC(=O)[C@H](Cc1ccc(O)cc1)NC(=O)[C@H](CO)NC(=O)[C@H](CO)NC(=O)[C@H](CC(N)=O)NC(=O)COCCOCCNC(=O)CN1CCN(CC(=O)O)CCN(CC(=O)O)CCN(CC(=O)O)CC1)C(=O)N[C@@H](CC(C)C)C(N)=O [copper-64 labelled] | – | dynamic PET | KPC mouse Ptf1a-CreER tdTomato, metastases | intravenous, 4.6 MBq/mouse, 0.6 min, 84 d after tamoxifen | – | tissue uptake | 10.1 %ID/mL
COc1ccccc1-c1n[nH]c2nc(N[C@H]3CC[C@H](NS(=O)(=O)CC(C)C)CC3)ncc12 | – | bead binding, competition bead pull-down, refers to: LINJ.03.0380 | Leishmania donovani extract | 10 µM | reference: vehicle | relative abundance | 0.83
CC(C)C[C@@H]1NC(=O)[C@@H](Cc2c[nH]c3ccccc23)NC(=O)[C@H](CCCNC(=N)N)NC(=O)[C@@H](CCC(=O)O)NC(=O)[C@H](CCC(N)=O)NC(=O)[C@@H](CCC(=O)O)NC(=O)[C@H](CCCNC(=N)N)NC(=O)[C@@H](Cc2c[nH]c3ccccc23)NC1=O | – | Luminex, refers to: IFNg | LDLr-/- mice, Western diet, liver | dose not given, 4 weeks | – | cytokine level | 37 ± 16 pg/g tissue
Cc1ccc(C2=CC(C)(C)Oc3ccc(-c4ccc(-c5ccc(C(=O)O)cc5)[nH]4)cc32)cc1 | – | – | CD-1 mouse, male, testis | 20 mg/kg/day, 2 weeks, one day after dosing end | – | tubules with multinucleated giant cells | 1.4% and 12.7%
O=C(O)c1ccc(-c2nc(-c3ccccc3Cl)c3sccn23)cc1 | – | – | C57BL/6 mice, 5-fluorouracil treated | dose not given, day 3 | – | reticulated platelets | 1.49% and 1.35% and 1.28% and 1.46%
Cc1cc(C(=O)Nc2nc3cccc(C)c3n2[C@H]2CCCCN(C(=O)/C=C/CN(C)C)C2)ccn1 | Trypanosoma brucei | – | STIB795, mouse acute HAT model | oral, 25 mg/kg once daily for 4 days, day 28 | reference: mice | survival | 16.7%
CS(C)(=O)=Nc1ccc(-c2ccc(-c3nc4cc(O[C@@H]5CO[C@H]6[C@@H]5OC[C@H]6O)[nH]c4cc3F)cc2)cc1 | Cyclin-dependent kinase 5, with p25 (CDK5, Homo sapiens, UniProt Q00535) | enzyme activity, inhibitor | – | 10 µM | – | inhibition | 12%
Cc1sc2c(c1C)C(c1ccc(-c3cccc(NC(=O)c4cnn5cccnc45)c3)cc1)=N[C@@H](CC(N)=O)c1nnc(C)n1-2 | – | – | mouse, MV4-11 subcutaneous xenograft | 5 mg/kg daily, 14 days | – | tumour growth inhibition | 114%
CC(C)C[C@H](NC(=O)[C@H](CCC(=O)O)NC(=O)[C@H](Cc1ccccc1)NC(=O)[C@@H]1CCCN1C(=O)CNC(=O)OCc1ccccc1)C(=O)N[C@@H](CCC(=O)O)C(=O)N[C@@H](CCCNC(=N)N)C(=O)N[C@@H](CCCNC(=N)N)C(=O)N[C@@H](Cc1ccccc1)C(=O)N[C@@H](CCCCN)C(=O)N[C@@H](CCC(N)=O)C(=O)N[C@@H](CCC(N)=O)C(=O)O | – | – | mouse xenograft, orthotopic tumour | dose not given | – | perfusion fraction f | 0.117 and 0.118 and 0.114
CC(C)(C)C(=O)OCOP(=O)(OCOC(=O)C(C)(C)C)C1CCCN(O)C1=O (stereo not drawn) | SK-OV-3 | – | – | – | – | log GI50 | -6.29 log M
COc1ccccc1-c1n[nH]c2nc(NC3CCN(C(=O)Cc4ccc(F)cc4F)CC3)ncc12 | – | bead binding, competition bead pull-down, refers to: LINJ.22.0350 | Leishmania donovani axenic amastigote extract | 10 µM | reference: vehicle | relative abundance | 1.1
CC[C@H](C)[C@H](NC(=O)[C@H](CCCNC(=N)N)NC(=O)[C@H](CO)NC(=O)[C@H](Cc1ccc(O)cc1)NC(=O)[C@@H](NC(=O)[C@@H](NC(=O)[C@H](C)NC(=O)CNC(=O)[C@H](CCCCN)NC(=O)[C@H](CCCCN)NC(=O)CCNC(=O)CCCCCNC(=O)[C@H](CCCNC(=N)N)NC(=O)CCCCCNC(=O)[C@H](CCCNC(=N)N)NC(=O)[C@H](CCCNC(=N)N)NC(=O)CCCCCNC(=O)[C@H](CCCNC(=N)N)NC(=O)[C@H](CCCNC(=N)N)NC(=O)CCCCCNC(=O)[C@H](CCCNC(=N)N)NC(=O)[C@H](CCCNC(=N)N)NC(=O)CCCCCNC(=O)[C@@H](N)CCCNC(=N)N)C(C)C)[C@@H](C)O)C(=O)N[C@@H](CO)C(=O)NCC(=O)N[C@@H](CCC(N)=O)C(=O)N[C@@H](Cc1ccc(O)cc1)C(=O)N[C@@H](CCCCN)C(=O)O | – | broth microdilution | 168, Mueller-Hinton broth | 16 to 18 h, 37 °C | – | MIC | 3 µM (≈ 10.7 µg/mL)

A few entries again:
Compound | target or system | assay | test system | conditions | scale | measurement | value
Cc1sc2c(c1C)C(c1ccc(-c3cccc(NC(=O)c4cnn5cccnc45)c3)cc1)=N[C@@H](CC(N)=O)c1nnc(C)n1-2 | – | – | mouse, MV4-11 subcutaneous xenograft | 5 mg/kg daily, 14 days | – | tumour growth inhibition | 114%
